Experimental data of several laboratories.
A part holds a random share of what one study measured. Changes are numbered by the printed parent chain.

Series 1 — target: CCNB2, cyclin fold, Cln2 fusion (human); technique: yeast growth competition, sequencing; matrix: yeast; notes: weak parent motif; baseline: not given; direction: higher = stronger binding; endpoint: normalised enrichment score
Starting sequence: SLBP docking peptide (human); ARYKRKLLINDFG
Substitution = ARYKRKLLINDSG [F12S]; value = 0.518
Substitution = ARYKRKLLQNDFG [I9Q]; value = -0.187
Substitution = ARYKRKLLINDFE [G13E]; value = 0.4
Substitution = ARYKRKLLINDFW [G13W]; value = 0.244
Substitution = ARYKRGLLINDFG [K6G]; value = 0.767
Substitution = ARYYRKLLINDFG [K4Y]; value = 0.192
Substitution = ARYKRKLLINDNG [F12N]; value = 1.56
Substitution = ARYKRKLMINDFG [L8M]; value = 0.766
Substitution = TRYKRKLLINDFG [A1T]; value = 1.34
Substitution = ARYKRKLLINHFG [D11H]; value = 0.729
Substitution = ARYKRKPLINDFG [L7P]; value = 0.319
Substitution = ARYKRKLLINDFP [G13P]; value = 0.796
Substitution = ARYKRKLLINDKG [F12K]; value = 0.133
Substitution = ARYKRKLLINDFN [G13N]; value = 0.415
Substitution = ARYKWKLLINDFG [R5W]; value = -0.256
Substitution = ARPKRKLLINDFG [Y3P]; value = 0.291
Substitution = CRYKRKLLINDFG [A1C]; value = 0.43
Substitution = AQYKRKLLINDFG [R2Q]; value = 0.977
Substitution = ARSKRKLLINDFG [Y3S]; value = 1.15

Series 2 — technique: RNA Bind-n-Seq; molecule type: RNA; matrix: in vitro; tested at: 200 nM; notes: whole 134-nt RNA, ends assumed; added: 150 mM KCl; baseline: input library; direction: higher = stronger binding; endpoint: log2 enrichment
Target: Fragile X messenger ribonucleoprotein 1, C-terminal low-complexity region (Fmr1, Mus musculus, UniProt P35922)
Constant ends, left off below: GGGAGUUCUACAGUCCGACGAUC … UGGAAUUCUCGGGUGUCAAGG
Oligonucleotide = UGGCCCUGGUGGAAUGCGGGGAGGAAGAGGUGGCCUCAUGGAUCGUGGUGGUCCCGGUGGAAUGUUCAGAGGUGGCCGUGGUGGAGACAG; value = -0.0624
Oligonucleotide = AGUCCUGUGCUACACAUCGUAUGUACCGAAUCGGUUUUUGGUUUUUGGAAAAAAAGGAAAGUAUUAUGUUACGCCGUUCGGAUCUGCACU; value = -1.02
Oligonucleotide = UCAAGUCCUGUGCUACACAUCGUAUGUACCGAAUCGGAAAAGGAAAAGGAAAAGGAAAGUAUUAUGUUACGCCGUUCGGAUCUGCACUUC; value = -0.757
Oligonucleotide = CACAGACAACACGCACCCACACAGACACAGAGGGAAGGGGUUGGGAUGGGGACAGGGUGCACAGCAGGGCGGGGUAGGACCCCAGACCCU; value = 1.26
Oligonucleotide = CCCAUCAUGUUCAGAGGUGAGGUCCGUCUGAAUGUCGAAGAGAAGAAGACUCGAGCUGCCAGGGAAGGCGACCGACGAGAUAAUCGCCUU; value = -1.44
Oligonucleotide = GUCCUGUGCUACACAUCGUAUGUACCGAAUCGGGUUUUUUUGGGUUUUUUUGGGUGGGAAAGUAUUAUGUUACGCCGUUCGGAUCUGCAC; value = 0.352
Oligonucleotide = CCUCAAGUCCUGUGCUACACAUCGUAUGUACCGAAUCGGGCCGGCCGGGCCGGAAAGUAUUAUGUUACGCCGUUCGGAUCUGCACUUCCA; value = -0.121
Oligonucleotide = AGUCCUGUGCUACACAUCGUAUGUACCGAAUCGGAAAGGAAAAAAAGGUUUUUUUGGAAAGUAUUAUGUUACGCCGUUCGGAUCUGCACU; value = -1.26
Oligonucleotide = GCAGCAAGUAAAAACAAAUGGAAAUGCUUCGGAUAGUGGCAGGGGUGGGGGUUGCUAAGGAAAGGGUGGGAUGGGAGUGGGUAAAGAGUU; value = 0.442
Oligonucleotide = UUGCAGGAGCCGCCGCGCCUCGGCCUAGCAUGUCGGAAGCGGGCGAGGAGCAGCCCAUGGAGACGACGGGCGCCACCGAGAACGGACAUG; value = -0.0923

Series 3 — target: UBE2Q2 UBC core domain (UniProt Q8WVN8); technique: yeast two-hybrid; matrix: yeast; notes: mostly zero background; baseline: not given; direction: higher = stronger interaction; endpoint: lacZ reporter activity
UniProt Q8WVN8, sequence (whole entry, looked up): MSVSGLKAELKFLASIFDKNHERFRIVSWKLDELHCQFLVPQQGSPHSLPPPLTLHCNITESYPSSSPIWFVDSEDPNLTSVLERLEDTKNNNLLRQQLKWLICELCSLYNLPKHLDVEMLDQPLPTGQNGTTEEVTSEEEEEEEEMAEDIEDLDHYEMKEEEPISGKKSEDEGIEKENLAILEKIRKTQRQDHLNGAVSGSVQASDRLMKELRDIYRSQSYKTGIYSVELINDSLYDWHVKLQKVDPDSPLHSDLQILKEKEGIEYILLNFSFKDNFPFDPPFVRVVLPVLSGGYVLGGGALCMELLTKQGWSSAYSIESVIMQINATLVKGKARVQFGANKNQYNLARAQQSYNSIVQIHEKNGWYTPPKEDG
B1: TRIM38 RING domain (UniProt O00635); chain STKKMMEEATCSICLSLMTNPVSINCGHSYCHLCITDFFKNPSQKQLRQETFCCPQCRAPFHMDSLRP
B2: RNF43 RING domain (UniProt Q68DV7); chain SGSSCSSAPVCAICLEEFSEGQELRVISCLHEFHRNCVDPWLHQHRTCPLCMFNITEGDSFS
B3: RNF4 RING domain (UniProt P78317); chain TGLRPSGTVSCPICMDGYSEIVQNGRLIVSTECGHVFCSQCLRDSLKNANTCPTCRKKINHKRYHP
B4: PEX2 RING domain (UniProt P28328); chain DNTLATSGKECALCGEWPTMPHTIGCEHIFCYFCAKSSFLFDVYFTCPKCGTEVHSLQPLK
B5: TRIM3 RING domain (UniProt O75382); chain VQPMDKQFLVCSICLDRYQCPKVLPCLHTFCERCLQNYIPAQSLTLSCPVCRQTSILPEQGV
B6: RNF150 RING domain (UniProt Q9ULK6); chain DKETESDFDNCAVCIEGYKPNDVVRILPCRHLFHKSCVDPWLLDHRTCPMCKMNILKALGIP
B7: RNF149 RING domain (UniProt Q8NC42); chain EKGIDVDAENCAVCIENFKVKDIIRILPCKHIFHRICIDPWLLDHRTCPMCKLDVIKALGYW
B8: TRIM10 RING domain (UniProt Q9UDY6); chain SVTSLADEVNCPICQGTLREPVTIDCGHNFCRACLTRYCEIPGPDLEESPTCPLCKEPFRPGSFRP
B9: RNF14 RING domain (UniProt Q9UBS8); chain IKCFNSKLFLCSICFCEKLGSECMYFLECRHVYCKACLKDYFEIQIRDGQVQCLNCPEPKCPSVATPGQVK
B10: RNF112 RING domain (UniProt Q9ULX5); chain QPMAPRELPTCSICLERLRDPISLDCGHDFCIRCFSTHRLPGCEPPCCPECRKICKQKRGLR
B11: RNF32 RING domain (UniProt Q9H0A6); chain SLLQGDSVQPCPICKEEFELRPQVLLSCSHVFHKACLQAFEKFTNKKTCPLCRKNQYQTRVIH
B12: ANKIB1 RING domain (UniProt Q9P2G1); chain LSPGDLDTSLCDICMCSISVFEDPVDMPCGHDFCRGCWESFLNLKIQEGEAHNIFCPAYDCFQLVPVDIIE
Sequence = MANWVFCNRCFQPPHRTSCFSLTNCGHVYCDACLGKGKKNECLICKAPCRTVLLSK (RNF212 RING domain (UniProt Q495C1)); value = 0
Sequence = B1 (TRIM38 RING domain); value = 0
Sequence = B2 (RNF43 RING domain); value = 0
Sequence = B3 (RNF4 RING domain); value = 0
Sequence = B4 (PEX2 RING domain); value = 0
Sequence = B5 (TRIM3 RING domain); value = 0
Sequence = B6 (RNF150 RING domain); value = 0
Sequence = B7 (RNF149 RING domain); value = 0
Sequence = B8 (TRIM10 RING domain); value = 0
Sequence = B9 (RNF14 RING domain); value = 0
Sequence = KIKDLNEHIVCCLCAGYFVDATTITECLHTFCKSCIVKYLQTSKYCPMCNIKIHETQPLL (PCGF1 RING domain (UniProt Q9BSM1)); value = 0
Sequence = B10 (RNF112 RING domain); value = 0
Sequence = B11 (RNF32 RING domain); value = 0
Sequence = SYEDKSNDFVCPICFDMIEEAYMTKCGHSFCYKCIHQSLEDNNRCPKCNYVVDNIDHLY (COP1 RING domain (UniProt Q8NHY2)); value = 0
Sequence = B12 (ANKIB1 RING domain); value = 0

Series 4 — technique: universal PBM; molecule type: double-stranded DNA, one strand shown; matrix: in vitro; tested at: not given; direction: higher = stronger binding; endpoint: E-score
Target: Sal-like protein 4, full length isoform B (SALL4, Homo sapiens, UniProt Q9UJQ4-2, residues 1-616)
Notes: 8-mer, flanks averaged, mean of replicates
Oligonucleotide = CGATTGTC; value = 0.0087
Oligonucleotide = TAGTACGA; value = 0.178
Oligonucleotide = CGAGACAA; value = -0.139
Oligonucleotide = CACTATGA; value = 0.141
Oligonucleotide = CATCCGGC; value = -0.277
Oligonucleotide = CGCAAGCC; value = -0.292
Oligonucleotide = ACCCGCTA; value = -0.0888
Oligonucleotide = ACAGGCCC; value = -0.337
Oligonucleotide = CATCTTCG; value = -0.0775
Oligonucleotide = GCCTTCAA; value = -0.0946
Oligonucleotide = GGGCGGAC; value = -0.418
Oligonucleotide = GATTCGGA; value = 0.0921
Oligonucleotide = CAATGCCA; value = -0.0434
